Results gathered from unrelated publications.
Compare with care: the assays were run in different laboratories.
Effect on: enzyme activity
Mode: inhibitor
CTSL: Procathepsin L (CTSL, Homo sapiens, UniProt P07711)
Chain of UniProt P07711 (whole entry, looked up): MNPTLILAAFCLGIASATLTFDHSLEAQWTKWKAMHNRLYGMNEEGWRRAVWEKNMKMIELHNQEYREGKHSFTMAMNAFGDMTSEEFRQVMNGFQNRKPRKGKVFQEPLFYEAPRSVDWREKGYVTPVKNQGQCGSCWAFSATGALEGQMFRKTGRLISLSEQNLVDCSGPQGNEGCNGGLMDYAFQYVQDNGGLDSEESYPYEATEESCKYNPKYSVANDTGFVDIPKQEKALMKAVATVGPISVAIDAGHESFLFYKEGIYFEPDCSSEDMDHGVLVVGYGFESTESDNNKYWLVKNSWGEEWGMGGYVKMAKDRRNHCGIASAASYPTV
ST14: Suppressor of tumorigenicity 14 protein (ST14, Homo sapiens, UniProt Q9Y5Y6)
Chain of UniProt Q9Y5Y6 (whole entry, looked up): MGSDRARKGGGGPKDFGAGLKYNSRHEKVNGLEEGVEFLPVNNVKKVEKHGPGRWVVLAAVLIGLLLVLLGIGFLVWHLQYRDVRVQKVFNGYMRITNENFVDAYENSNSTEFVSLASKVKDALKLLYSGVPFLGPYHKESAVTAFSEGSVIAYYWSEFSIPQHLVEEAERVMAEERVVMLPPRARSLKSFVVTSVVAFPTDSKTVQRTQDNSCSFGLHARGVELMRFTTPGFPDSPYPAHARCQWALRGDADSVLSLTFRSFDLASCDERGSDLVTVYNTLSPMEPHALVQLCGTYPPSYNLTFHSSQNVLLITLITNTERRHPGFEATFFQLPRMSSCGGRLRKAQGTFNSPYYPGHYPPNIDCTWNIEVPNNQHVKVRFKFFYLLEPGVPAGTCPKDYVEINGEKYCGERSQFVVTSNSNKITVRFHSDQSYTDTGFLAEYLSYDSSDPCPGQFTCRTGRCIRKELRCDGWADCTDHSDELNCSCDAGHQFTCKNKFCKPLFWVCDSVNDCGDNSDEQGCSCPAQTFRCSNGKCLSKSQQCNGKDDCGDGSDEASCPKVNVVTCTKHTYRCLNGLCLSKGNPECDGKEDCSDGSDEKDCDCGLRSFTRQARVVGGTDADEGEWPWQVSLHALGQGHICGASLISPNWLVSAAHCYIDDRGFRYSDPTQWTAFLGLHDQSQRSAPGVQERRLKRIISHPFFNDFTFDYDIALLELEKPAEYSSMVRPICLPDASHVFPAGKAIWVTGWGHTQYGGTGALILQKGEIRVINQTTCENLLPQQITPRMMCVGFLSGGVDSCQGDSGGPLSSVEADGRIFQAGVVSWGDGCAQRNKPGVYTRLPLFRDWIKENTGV
Chain of UniProt Q00535 (whole entry, looked up): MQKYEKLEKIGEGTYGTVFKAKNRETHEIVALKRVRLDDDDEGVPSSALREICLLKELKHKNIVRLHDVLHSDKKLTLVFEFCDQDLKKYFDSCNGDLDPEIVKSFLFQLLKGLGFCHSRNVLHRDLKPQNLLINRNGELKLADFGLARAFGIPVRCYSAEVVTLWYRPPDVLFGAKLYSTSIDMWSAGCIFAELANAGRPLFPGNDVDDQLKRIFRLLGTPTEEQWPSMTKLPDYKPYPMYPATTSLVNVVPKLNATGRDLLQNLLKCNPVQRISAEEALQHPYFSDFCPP
Chain of UniProt P05164 (whole entry, looked up): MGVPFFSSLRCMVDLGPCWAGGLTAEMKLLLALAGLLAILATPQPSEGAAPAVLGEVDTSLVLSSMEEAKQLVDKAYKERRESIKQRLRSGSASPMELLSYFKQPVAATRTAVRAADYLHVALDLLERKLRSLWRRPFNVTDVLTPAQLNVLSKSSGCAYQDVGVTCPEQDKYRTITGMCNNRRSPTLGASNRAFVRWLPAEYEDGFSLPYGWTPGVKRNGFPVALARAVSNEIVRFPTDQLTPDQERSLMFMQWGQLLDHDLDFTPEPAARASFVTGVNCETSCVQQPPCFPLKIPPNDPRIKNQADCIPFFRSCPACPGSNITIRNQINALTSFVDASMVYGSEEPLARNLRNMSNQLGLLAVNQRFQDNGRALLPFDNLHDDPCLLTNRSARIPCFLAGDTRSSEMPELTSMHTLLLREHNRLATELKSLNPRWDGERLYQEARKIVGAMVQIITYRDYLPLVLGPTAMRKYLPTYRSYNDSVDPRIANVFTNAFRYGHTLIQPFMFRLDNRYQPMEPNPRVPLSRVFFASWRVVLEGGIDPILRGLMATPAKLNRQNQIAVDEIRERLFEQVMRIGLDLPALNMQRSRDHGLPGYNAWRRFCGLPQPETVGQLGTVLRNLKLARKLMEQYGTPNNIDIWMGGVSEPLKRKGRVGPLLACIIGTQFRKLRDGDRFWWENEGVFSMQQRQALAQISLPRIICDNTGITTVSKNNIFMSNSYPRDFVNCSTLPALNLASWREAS
Chain of UniProt P48426 (whole entry, looked up): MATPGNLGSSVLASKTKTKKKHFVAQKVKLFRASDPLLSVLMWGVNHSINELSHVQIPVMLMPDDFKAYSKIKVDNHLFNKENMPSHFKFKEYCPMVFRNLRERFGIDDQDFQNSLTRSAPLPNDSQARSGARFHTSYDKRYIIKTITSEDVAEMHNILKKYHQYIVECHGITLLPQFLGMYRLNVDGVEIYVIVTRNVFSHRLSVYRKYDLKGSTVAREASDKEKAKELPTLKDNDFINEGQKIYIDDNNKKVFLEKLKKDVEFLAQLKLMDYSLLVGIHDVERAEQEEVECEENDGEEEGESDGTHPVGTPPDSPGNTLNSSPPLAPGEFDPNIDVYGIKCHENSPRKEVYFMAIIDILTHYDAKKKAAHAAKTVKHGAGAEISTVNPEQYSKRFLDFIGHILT
Chain of UniProt P42685 (whole entry, looked up): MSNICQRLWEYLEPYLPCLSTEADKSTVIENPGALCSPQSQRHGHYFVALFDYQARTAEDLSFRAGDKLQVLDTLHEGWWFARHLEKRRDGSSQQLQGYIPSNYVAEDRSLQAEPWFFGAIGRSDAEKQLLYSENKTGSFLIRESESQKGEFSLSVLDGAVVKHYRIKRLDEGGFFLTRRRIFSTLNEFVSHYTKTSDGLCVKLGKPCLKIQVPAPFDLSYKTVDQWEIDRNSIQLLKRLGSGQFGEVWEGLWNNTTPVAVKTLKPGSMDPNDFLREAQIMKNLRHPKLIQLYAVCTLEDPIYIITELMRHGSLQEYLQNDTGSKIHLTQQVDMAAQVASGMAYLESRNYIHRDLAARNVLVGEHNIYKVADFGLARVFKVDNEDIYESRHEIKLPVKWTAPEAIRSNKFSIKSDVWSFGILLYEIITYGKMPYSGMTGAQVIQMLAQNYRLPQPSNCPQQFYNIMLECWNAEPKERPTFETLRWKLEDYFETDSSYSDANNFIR
Chain of UniProt Q9UEE5 (whole entry, looked up): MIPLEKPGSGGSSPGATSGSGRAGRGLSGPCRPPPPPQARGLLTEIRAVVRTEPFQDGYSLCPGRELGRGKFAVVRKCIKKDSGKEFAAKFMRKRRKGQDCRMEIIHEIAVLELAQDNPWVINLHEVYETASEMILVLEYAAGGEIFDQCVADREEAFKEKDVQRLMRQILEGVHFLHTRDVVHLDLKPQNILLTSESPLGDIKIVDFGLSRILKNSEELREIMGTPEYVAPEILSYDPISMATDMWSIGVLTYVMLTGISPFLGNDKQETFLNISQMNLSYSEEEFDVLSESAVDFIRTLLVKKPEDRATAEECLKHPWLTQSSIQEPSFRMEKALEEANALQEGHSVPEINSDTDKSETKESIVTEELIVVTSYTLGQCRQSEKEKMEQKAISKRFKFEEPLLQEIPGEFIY
Chain of UniProt Q8IU80 (whole entry, looked up): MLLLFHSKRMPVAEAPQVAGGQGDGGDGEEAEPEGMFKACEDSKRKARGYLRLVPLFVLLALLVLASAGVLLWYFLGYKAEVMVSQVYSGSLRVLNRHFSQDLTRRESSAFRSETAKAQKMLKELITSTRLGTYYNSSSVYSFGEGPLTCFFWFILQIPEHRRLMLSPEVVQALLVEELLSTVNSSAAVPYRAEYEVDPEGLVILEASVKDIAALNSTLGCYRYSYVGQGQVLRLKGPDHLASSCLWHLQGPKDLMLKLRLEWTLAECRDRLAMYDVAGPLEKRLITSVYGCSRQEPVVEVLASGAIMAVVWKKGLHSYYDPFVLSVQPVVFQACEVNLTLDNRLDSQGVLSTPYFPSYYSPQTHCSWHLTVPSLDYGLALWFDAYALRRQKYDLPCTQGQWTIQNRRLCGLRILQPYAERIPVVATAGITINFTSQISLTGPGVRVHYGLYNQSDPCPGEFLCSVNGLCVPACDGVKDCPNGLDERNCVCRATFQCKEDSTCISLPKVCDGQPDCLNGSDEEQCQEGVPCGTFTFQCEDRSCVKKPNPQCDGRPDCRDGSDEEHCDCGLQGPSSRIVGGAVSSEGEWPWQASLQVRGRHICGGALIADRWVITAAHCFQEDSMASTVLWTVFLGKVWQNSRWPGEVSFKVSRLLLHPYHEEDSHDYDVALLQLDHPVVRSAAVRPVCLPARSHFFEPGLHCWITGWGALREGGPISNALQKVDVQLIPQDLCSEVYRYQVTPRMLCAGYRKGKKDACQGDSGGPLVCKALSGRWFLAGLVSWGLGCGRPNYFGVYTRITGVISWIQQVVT

For `O=C(O)CNC(=O)c1ccccc1`, the remaining activity was 106% (CTSL; 100 µM).
The remaining activity of `CC[C@H](C)[C@H](NC(=O)[C@H](CCC(N)=O)NC(=O)[C@@H](NC(=O)[C@H](CCSC)NC(=O)[C@H](CCCCN)NC(=O)[C@H](CO)NC(=O)[C@@H](NC(=O)[C@H](CCSC)NC(=O)[C@H](CC(C)C)NC(=O)[C@H](CC(N)=O)NC(=O)[C@@H](NC(=O)[C@@H](NC(=O)[C@H](CO)NC(=O)[C@H](CC(C)C)NC(=O)[C@H](C)NC(=O)[C@H](CCCNC(=N)N)NC(=O)[C@H](CCC(=O)O)NC(=O)[C@H](Cc1ccc(O)cc1)NC(=O)[C@H](Cc1ccccc1)NC(=O)[C@H](C)NC(=O)[C@H](CC(N)=O)NC(=O)[C@@H](N)CCCCN)[C@@H](C)CC)[C@@H](C)CC)[C@@H](C)O)C(C)C)C(=O)N[C@@H](CC(N)=O)C(=O)N[C@H](C(=O)O)C(C)C` is reported as 54% (Cyclin-dependent kinase 5, with p25 (CDK5, Homo sapiens, UniProt Q00535); radiometric; 100 µM, 20 min).
With `NC/C(=C\F)COc1cccc(Cn2c(=S)[nH]c(=O)c3[nH]cnc32)c1` the remaining activity was 50.4% (Myeloperoxidase (Mus musculus, UniProt P11247); 83 nM).
The remaining activity of `CNc1ncc2c(/C=C/C(=O)N3CCC(OC)CC3)nn(Cc3cccc(C(F)(F)F)c3)c2n1` is reported as 75% (Tyrosine-protein kinase FRK (FRK, Homo sapiens, UniProt P42685); radiometric; 1 µM).
`O=c1oc2cc(O)ccc2c2ccc(O)cc12` gave a remaining activity of 65.8% (CTSL; 100 µM).
For `NS(=O)(=O)c1ccc(CNc2ccnc(Nc3cccc(CN4CCOCC4)c3)n2)cc1`, the remaining activity was 93% (Serine/threonine-protein kinase 17A (STK17A, Homo sapiens, UniProt Q9UEE5); radiometric; 1 µM).
`CC(C)[C@@H](NC(=O)[C@H](Cc1cscn1)NC(=O)CCc1ccccc1)C(=O)N[C@@H](CCCNC(=N)N)C(=O)c1nc2ccccc2s1` has a remaining activity of 89% (ST14; 0.1 µM).
The remaining activity of `CC[C@H](C)[C@H](NC(=O)[C@H](CCC(N)=O)NC(=O)[C@H](CC(C)C)NC(=O)[C@H](CCSC)NC(=O)[C@H](CCCCN)NC(=O)[C@H](CO)NC(=O)[C@H](CO)NC(=O)[C@H](CCSC)NC(=O)[C@H](CC(C)C)NC(=O)[C@H](CC(N)=O)NC(=O)[C@@H](NC(=O)[C@@H](NC(=O)[C@H](CO)NC(=O)[C@H](CC(C)C)NC(=O)[C@H](CS)NC(=O)[C@H](CCCNC(=N)N)NC(=O)[C@H](CC(=O)O)NC(=O)[C@H](Cc1c[nH]c2ccccc12)NC(=O)[C@H](Cc1ccccc1)NC(=O)[C@H](C)NC(=O)[C@H](CCC(=O)O)NC(=O)[C@@H](N)CCCCN)C(C)C)[C@@H](C)CC)C(=O)N[C@@H](CC(N)=O)C(=O)N[C@@H](C)C(=O)O` is reported as 24% (Cyclin-dependent kinase 5, with p35 (CDK5, Homo sapiens, UniProt Q00535); radiometric; 500 µM, 20 min).
With `CC(C)OCCn1c(=S)[nH]c(=O)c2[nH]ccc21` the remaining activity was 28.3% (Myeloperoxidase (MPO, Homo sapiens, UniProt P05164); 1.25 µM).
`NC(=O)C(=O)c1c[nH]c2ccccc12` gave a remaining activity of 91.1% (CTSL; 100 µM).
`N=C(N)NCCC[C@H](NC(=O)[C@H](Cc1ccc(I)cc1)NC(=O)[C@H](Cc1cscn1)NC(=O)CCc1ccccc1)C(=O)c1nc2ccccc2s1` has a remaining activity of 96% (ST14; 0.1 µM).
`COc1cc(Cl)c(C(=O)N[C@@H](CN[C@H]2CC[C@@H](N)CC2)Cc2ccc(C#N)cc2)cc1-c1ccc(CN[C@H](C)c2ccc(C)cc2)o1` has a remaining activity of 102% (Phosphatidylinositol 5-phosphate 4-kinase type-2 alpha (PIP4K2A, Homo sapiens, UniProt P48426); 1 µM).
`COc1ccc(/C=C/C(=O)c2c(O)cc(OC3OC(COC4OC(C)C(O)C(O)C4O)C(O)C(O)C3O)cc2OC)cc1O` (stereo not drawn) has a remaining activity of 89.8% (CTSL; 100 µM).
For `N=C(N)NCCC[C@H](NC(=O)[C@H](CCc1ccccc1)NC(=O)[C@H](Cc1cscn1)NC(=O)CCc1ccccc1)C(=O)c1nc2ccccc2s1`, the remaining activity was 2% (ST14; 0.1 µM).
`O=C1c2c(O)cc(O)cc2O[C@H](c2ccc(O)cc2)[C@H]1O` gave a remaining activity of 147% (CTSL; 100 µM).
The remaining activity of `N=C(N)NCCC[C@H](NC(=O)[C@H](Cc1cccc2ccccc12)NC(=O)[C@H](Cc1cscn1)NC(=O)CCc1ccccc1)C(=O)c1nc2ccccc2s1` is reported as 5% (Transmembrane protease serine 6 (Homo sapiens, UniProt Q8IU80); 0.1 µM).
For `COc1ccc2c3ccnc4ccc(=O)n(c2c1)c43`, the remaining activity was 125% (CTSL; 100 µM).
`COc1cc(-c2cncc3c2CN(C)Cc2cc(N4CCNCC4)ccc2-3)cc(OC)c1OC` has a remaining activity of 105% (Tyrosine-protein kinase JAK3 (JAK3, Homo sapiens, UniProt P52333); 1 µM).

Repeated from above:
For `NS(=O)(=O)c1ccc(CNc2ccnc(Nc3cccc(CN4CCOCC4)c3)n2)cc1`, the remaining activity was 93% (Serine/threonine-protein kinase 17A (STK17A, Homo sapiens, UniProt Q9UEE5); radiometric; 1 µM).
